Measured values gathered from unrelated publications.
Numbers after ± are the reported error.

For `CNC(=O)c1ccc(-c2ccc(Cl)cc2)c(COc2ccc(-c3nc4cc(C(=O)O)ccc4n3C3CCCCC3)cc2)c1`, the EC50 was 0.4 µM (hepatitis C virus; replicon replication; Huh-7, genotype 1b Con1).
The EC50 of `COC(=O)C(CCSC)NC(=O)C1OC(OC2C(OC3CCC4(C)C(CCC5(C)C4C(=O)C=C4C6CC(C)(C(=O)O)CCC6(C)CCC45C)C3(C)C)OC(C(=O)NC(CCSC)C(=O)OC)C(O)C2O)C(O)C(O)C1O` (centres unmarked) is reported as > 1000 µM (Epstein-Barr virus; viral genome copies, quantitative PCR; superinfected Raji cells; 24 h).
`C=C(C)[C@@H]1CC[C@]2(C(=O)n3ccnc3)CC[C@]3(C)[C@H](CC[C@@H]4[C@@]5(C)CCCNC(C)(C)[C@@H]5CC[C@]43C)[C@@H]12` has an EC50 of 1.07 µM (human papillomavirus 11; viral replication, inhibitor, luciferase; C-33-A).
For `CC(C)CC(NC(=O)C1OC(OC2C(OC3CCC4(C)C(CCC5(C)C4C(=O)C=C4C6CC(C)(C(=O)NC(CC(C)C)C(=O)O)CCC6(C)CCC45C)C3(C)C)OC(C(=O)NC(CC(C)C)C(=O)O)C(O)C2O)C(O)C(O)C1O)C(=O)O` (centres unmarked), the EC50 was ~42 µM (Epstein-Barr virus; EA/VCA antigen expression, indirect immunofluorescence; superinfected Raji cells; 24 h).
For `CC1(CCCCCCCCCCCCCCOCCCOP(=O)(O)CO[C@H](CO)Cn2ccc(N)nc2=O)COC1`, the EC50 was 0.29 ± 0.17 µM (human alphaherpesvirus 2; cytopathic effect; HFF, G).
The EC50 of `CCOC(=O)[C@@H](C)NP(=O)(CO[C@H](CF)Cn1cnc(N)nc1=O)N[C@H](C)C(=O)OCC` is reported as > 100 µM (varicella-zoster virus; plaque formation; HEL, Oka, TK+).
The EC50 of `COC(=O)C(CCC(=O)O)NC(=O)C1OC(OC2C(OC3CCC4(C)C(CCC5(C)C4C(=O)C=C4C6CC(C)(C(=O)O)CCC6(C)CCC45C)C3(C)C)OC(C(=O)NC(CCC(=O)O)C(=O)OC)C(O)C2O)C(O)C(O)C1O` (centres unmarked) is reported as 135 ± 35 µM (Epstein-Barr virus; viral genome copies, quantitative PCR; superinfected Raji cells; 24 h).
The EC50 of `CC1(C)NCCC[C@]2(C)[C@H]3CC=C4[C@@H]5C[C@@](C)(CO)CC[C@]5(C)CC[C@@]4(C)[C@]3(C)CC[C@@H]12` is reported as > 1.2 µM (human papillomavirus 11; viral replication, inhibitor, luciferase; C-33-A).
With `CC1(CCCCCCCCCCOCCCOP(=O)(O)CO[C@H](CO)Cn2ccc(N)nc2=O)COC1` the EC50 was 0.01 ± 0.01 µM (human alphaherpesvirus 2; cytopathic effect; HFF, G).
With `C[C@H]1[C@H](C)CC[C@]2(CO)CC[C@]3(C)C(=CC[C@@H]4[C@@]5(C)CCCNC(C)(C)[C@@H]5CC[C@]43C)[C@H]12` the EC50 was > 1.2 µM (human papillomavirus 11; viral replication, inhibitor, luciferase; C-33-A).
`Nc1ccn(C[C@@H](CO)OCP(=O)(O)OCCCS(=O)(=O)CCCCCCCCCCCCC2CCC2)c(=O)n1` gave an EC50 of 0.01 ± 0.01 µM (human alphaherpesvirus 3; cytopathic effect; HFF, Ellen).
`CC1(C)C2CC[C@]3(C)C(C(=O)C=C4[C@H]5C[C@@](C)(C(=O)O)CC[C@]5(C)CC[C@]43C)[C@@]2(C)CC[C@@H]1O[C@@H]1O[C@H](C(=O)O)[C@@H](O)[C@H](O)[C@H]1O[C@@H]1O[C@H](C(=O)O)[C@@H](O)[C@H](O)[C@H]1O` (single isomer, unassigned) gave an EC50 of 50 ± 8.33 µM (Epstein-Barr virus; EA/VCA antigen expression, indirect immunofluorescence; superinfected Raji cells; 24 h).
For `Nc1ccn(C[C@@H](CO)OCP(=O)(O)OCCCS(=O)(=O)CCCCCCCCCCC2CCC2)c(=O)n1`, the EC50 was 0.29 ± 0.13 µM (human alphaherpesvirus 2; cytopathic effect; HFF, G).
For `CNC(=O)c1c(F)cccc1Nc1nc(Nc2cc3c(cc2OC)CCN3C(=O)CN(C)C)nc2[nH]ccc12`, the EC50 was > 15.8 µM (Leishmania major; parasite growth; intracellular, amastigote).
The EC50 of `Nc1ccn(C[C@@H](CO)OCP(=O)(O)OCCCS(=O)(=O)CCCCCCCCCCCCCC2CCC2)c(=O)n1` is reported as 0.007 ± 0.01 µM (human alphaherpesvirus 3; cytopathic effect; HFF, Ellen).
The EC50 of `COC(=O)C(C)NC(=O)C1OC(OC2C(OC3CCC4(C)C(CCC5(C)C4C(=O)C=C4C6CC(C)(C(=O)O)CCC6(C)CCC45C)C3(C)C)OC(C(=O)NC(C)C(=O)OC)C(O)C2O)C(O)C(O)C1O` (centres unmarked) is reported as 30 ± 5 µM (Epstein-Barr virus; viral genome copies, quantitative PCR; superinfected Raji cells; 24 h).
`COc1ccc(-c2nc(-c3ccccc3OC)[nH]c2-c2ccc(OC)cc2)cc1` gave an EC50 of > 100 µM (Schistosoma mansoni; worm killing; mature worms, mixed sexes; 96 h).
`Nc1nc2c(ncn2COCCOC(=O)[C@@H](N)CO)c(=O)[nH]1` gave an EC50 of 38.4 µM (human alphaherpesvirus 2; viral cytopathic effect, CPE inhibition).
With `COC(=O)C1(C)CCC2(C)CCC3(C)C(=CC(=O)C4C5(C)CCC(OC6OC(C(=O)NN)C(O)C(O)C6OC6OC(C(=O)NN)C(O)C(O)C6O)C(C)(C)C5CCC43C)C2C1` (centres unmarked) the EC50 was > 1000 µM (Epstein-Barr virus; viral genome copies, quantitative PCR; superinfected Raji cells; 24 h).
`CC1(CCCCCCCCCCCCOCCCOP(=O)(O)CO[C@H](CO)Cn2ccc(N)nc2=O)COC1` has an EC50 of 0.29 ± 0.13 µM (human alphaherpesvirus 2; cytopathic effect; HFF, G).
With `COc1ccc2c(c1)C=C(C(=O)N1C[C@@H](C)O[C@@H](C)C1)Cn1c-2c(C2CCCCC2)c2ccc(C(=O)NS(=O)(=O)N(C)C)cc21` the EC50 was 0.04 µM (hepatitis C virus; replicon replication; Huh-7, genotype 1b Con1).
With `Nc1nc2c(ncn2COCCOC(=O)CCC(=O)OC[C@H](N)C(=O)O)c(=O)[nH]1` the EC50 was 245 µM (human alphaherpesvirus 2; viral cytopathic effect, CPE inhibition).
`CC1(C)CC[C@]2(CO)CC[C@]3(C)C(=CC[C@@H]4[C@@]5(C)CCCNC(C)(C)[C@@H]5CC[C@]43C)[C@@H]2C1` gave an EC50 of > 0.24 µM (human papillomavirus 11; viral replication, inhibitor, luciferase; C-33-A).

Repeated from above:
With `COc1ccc2c(c1)C=C(C(=O)N1C[C@@H](C)O[C@@H](C)C1)Cn1c-2c(C2CCCCC2)c2ccc(C(=O)NS(=O)(=O)N(C)C)cc21` the EC50 was 0.04 µM (hepatitis C virus; replicon replication; Huh-7, genotype 1b Con1).
For `CNC(=O)c1ccc(-c2ccc(Cl)cc2)c(COc2ccc(-c3nc4cc(C(=O)O)ccc4n3C3CCCCC3)cc2)c1`, the EC50 was 0.4 µM (hepatitis C virus; replicon replication; Huh-7, genotype 1b Con1).
